Published values of several laboratories.
Protocols differ between the studies behind these lines. Several values in a cell are separate wells, animals, samples, runs or records. Numbers after ± are the reported error. Converted amounts (≈) assume the structure as drawn.

CC(=O)N[C@H](C(=O)N[C@@H](CCCC(=O)OC(C)(C)C)C(=O)N[C@@H](CCC1CCCCC1)C(=O)N[C@@H](CC(=O)O)C(=O)COC(=O)c1c(C)cccc1C)C(C)(C)C
ALT (C57BL/6N mouse, serum; concentration not given, compound alone): 318 U/L and 408 U/L and 444 U/L and 270 U/L and 546 U/L and 550 U/L

CNCCNC(=O)[C@@H]1NC(=O)[C@@H]2Cc3ccc(cc3)Oc3cc4cc(c3O)-c3ccc5c(c[nH]c5c3)C[C@@H](NC(=O)C(N)c3ccc(O)cc3)C(=O)N[C@H](c3ccc(O)cc3)C(=O)N[C@H]4C(=O)N[C@@H](C(=O)N2C)c2ccc(cc2)Oc2cc1ccc2O (stereo partly drawn)
thermodynamic solubility (saline; 24 h, 25 °C): 8.3 µg/mL (≈ 7.05 µM)

CC1COC2=C1C(=O)C(=O)c1c2ccc2c1C(OC(=O)CNC(=O)CN)CCC2(C)C (mixture of isomers)
equilibrium solubility (saline; 24 h, 25 °C): 209 µg/mL

CC(C)C[C@@H](NC(=O)[C@@H](CCCNC(=N)N)NC(=O)[C@@H](Cc1c[nH]cn1)NC(=O)[C@@H](Cc1c[nH]c2ccccc12)NC(=O)[C@@H](Cc1c[nH]cn1)NC(=O)[C@@H](Cc1ccccc1)NC(=O)[C@H](NC(=O)[C@@H](Cc1ccc(O)cc1)NC(=O)CNC(=O)CNC(=O)CCOCCOCCOCCNC(=O)CN1CCN(CC(=O)O)CCN(CC(=O)O)CC1)[C@H](C)O)C(=O)N[C@H](CC(N)=O)C(=O)N1CCC[C@@H]1C(=O)O [gallium-68 labelled]
absorbed dose (human female, from C57BL/6 mouse, total body): 0.0126 mSv/MBq

CC[C@H](C)[C@H](NC(=O)[C@H](Cc1ccc(O)cc1)NC(=O)[C@@H](NC(=O)[C@H](CCCNC(=N)N)NC(=O)[C@@H](N)CC(=O)O)C(C)C)C(=O)N[C@@H](Cc1c[nH]cn1)C(=O)N1CCC[C@H]1C(=O)O
Tmax (Beagle dogs, both sexes, plasma; subcutaneous, 10 mg/kg/day, day 27): 18.8 ± 10.6 min

CN1Cc2cc(Cl)ccc2-n2c(nnc2C2CCN(c3cccc([18F])n3)CC2)C1
tissue uptake (C57BL/6 mouse male, thymus; intravenous, 3.7 MBq, 5 min): 3.76 ± 0.54 %ID/g

CCc1nn(C)c2nc(-c3ccc(C(=O)O)cc3)nc(NCc3ccccc3)c12
body weight (NSG mice; dose not given, day 3 of treatment): 22.9 g and 23.1 g and 23.2 g and 21.4 g

CC(C)[C@@H]1NC(=O)CNC(=O)[C@H](CC(N)=O)NC(=O)[C@H](CCCNC(=N)N)NC(=O)[C@H](Cc2ccc(O)cc2)NC(=O)[C@H](C(C)C)NC(=O)[C@@H](NC(=O)[C@@H](NC(=O)[C@H](CC(N)=O)NC(=O)[C@H](Cc2c[nH]c3ccccc23)NC(=O)[C@H](C)NC(=O)[C@H](Cc2ccccc2)NC(=O)CNC(=O)[C@H](CCCCN)NC(=O)[C@H](Cc2ccccc2)NC(=O)[C@H](Cc2ccccc2)NC(=O)[C@H](CCCCN)NC(=O)OCC2c3ccccc3-c3ccccc32)C(C)C)CSSC[C@@H](C(=O)N[C@@H](Cc2c[nH]cn2)C(=O)N[C@@H](CCCNC(=N)N)C(=O)N[C@@H](CCCNC(=N)N)C(=O)N[C@@H](C)C(=O)N[C@@H](CC(N)=O)C(N)=O)NC(=O)[C@H](C(C)C)NC(=O)[C@H](CCCNC(=N)N)NC1=O
peptide remaining (HPLC; mouse kidney homogenate 50 mg/mL; 4.00 h, 37 °C): 72.6% and 66.5% and 68.7%

C/C(=N\OCCCN1CCCCC1)c1ccc(C(F)(F)F)cc1
plasma concentration (C57BL/6 mouse, plasma; oral, 10 mg/kg, 0.5 h): 186 ± 6.56 ng/mL

O=C1NC2(CC2)COc2ncc(F)cc2[C@H]2COCCN2c2ccn3ncc1c3n2
organ-to-body weight ratio (Sprague-Dawley rat, male, heart; oral, 5 mg/kg/day, 4 weeks dosing, end of recovery): 0.299 ± 0.014%

Cc1ccccc1-c1ccc(-c2nc(-c3ccc(CN(C)CCCC(=O)O)c([18F])c3)no2)cc1C(F)(F)F
tracer uptake (rat, brain; 1 h): 0.27 %ID/g

C#Cc1c(F)ccc2cc(O)cc(-c3ncc4c(N5CC6CCC(C5)N6C(=O)OC(C)OC(=O)CC(C)(C)C)nc(OC[C@@]56CCCN5C[C@H](F)C6)nc4c3F)c12 (stereo partly drawn)
compound remaining (chemical stability; simulated intestinal fluid; 1 µM, 30 min): 104%

CC[C@H](C)[C@H](NC(=O)[C@H](CCCCN)NC(=O)CNC(=O)[C@H](CC(C)C)NC(=O)[C@H](Cc1ccccc1)NC(=O)[C@H](CCCCN)NC(=O)[C@H](CO)NC(=O)[C@H](Cc1ccccc1)NC(=O)[C@H](Cc1c[nH]c2ccccc12)NC(=O)[C@H](CCC(N)=O)NC(=O)[C@@H](NC(=O)[C@H](Cc1ccccc1)NC(=O)CCCCCNC(=O)CN1CCN(CC(=O)O)CCN(CC(=O)O)CCN(CC(=O)O)CC1)C(C)C)C(=O)N[C@@H](CCC(=O)O)C(=O)N1CCC[C@H]1C(=O)N[C@@H](CC(=O)O)C(=O)N[C@H](C(=O)N[C@@H](CO)C(=O)N[C@@H](CCC(N)=O)C(=O)N[C@H](C(=O)N[C@@H](CCC(N)=O)C(=O)N[C@@H](CC(=O)O)C(=O)N1CCC[C@H]1C(=O)N[C@@H](CC(N)=O)C(=O)N[C@@H](CC(=O)O)C(=O)N[C@@H](CCC(N)=O)C(=O)N[C@@H](Cc1ccc(O)cc1)C(=O)N[C@@H](CCC(=O)O)C(=O)N1CCC[C@H]1C(=O)N[C@@H](Cc1ccccc1)C(=O)O)C(C)C)C(C)C [copper-64 labelled]
tissue uptake (GZMB-/- mice, CT26 tumour-bearing, kidneys; 2 h, vehicle-treated): 30.5 ± 7.5 %ID/g

CN1CCCCC1C(=O)NC(Cc1ccc(-c2ccccc2)cc1)B(O)O (stereo not drawn)
oral bioavailability (male Sprague-Dawley rats; oral, 1 mg/kg): 58%

CC[C@H](C)[C@H](NC(=O)[C@H](CCCNC(=N)N)NC(=O)[C@H](CCCCN)NC(=O)[C@H](Cc1ccc(O)cc1)NC(=O)[C@H](CC(=O)O)NC(=O)[C@H](C)NC(=O)CNC(=O)CCOCCOCCOCCNC(=O)CN1CCN(CC(=O)O)CCN(CC(=O)O)CCN(CC(=O)O)CC1)C(=O)N[C@H](C(=O)N[C@H](C(=O)N[C@@H](CCCCN)C(=O)N[C@H](C(=O)N[C@@H](CC(N)=O)C(N)=O)C(C)C)C(C)C)[C@@H](C)O [copper-64 labelled]
tissue uptake (ex vivo gamma counting; C57BL/6J male mice, B16-F10 tumour, lung; intravenous, 1.85 MBq, 5 min): 4.25 ± 0.638 %ID/g

Cc1ccc(OCC(=O)N(Cc2cccs2)c2ccn[nH]2)cc1
micronucleated PCEs (in vivo micronucleus; Crl:CD-1(ICR) mice, male, bone marrow polychromatic erythrocytes; oral, 1000 mg/kg/day, 3 days): 0.03 ± 0.03%

CC1(C)C(NC(=O)C(=NOC2(C(=O)O)CC2)c2csc(N)n2)C(=O)N1OS(=O)(=O)O (stereo not drawn)
LD50 (Kunming mouse; intravenous, 7-day observation): > 500 mg/kg

CN[C@H](CC(C)C)C(=O)N[C@H]1C(=O)N[C@@H](CC(N)=O)C(=O)N[C@H]2C(=N)N[C@H]3C(=O)N[C@H](C(=O)N[C@H](C(=O)NCCCNC(=N)N)c4cc(O)cc(O)c4-c4cc3ccc4O)[C@H](O)c3ccc(c(Cl)c3)Oc3cc2cc(c3O[C@@H]2O[C@H](CO)[C@@H](O)[C@H](O)[C@H]2O[C@H]2C[C@](C)(NCc3ccc(-c4ccc(Cl)cc4)cc3)[C@H](O)[C@H](C)O2)Oc2ccc(cc2Cl)[C@H]1O
clearance (mouse; intravenous, 25 mg/kg): 0.55 mL/min/kg
